Experimental data collected from several papers.
Each numbered part is a random draw from the data of one study; scales do not carry over between parts.

Sample 1 — method: protein-binding microarray; molecule type: double-stranded DNA, one strand shown; medium: in vitro; tested at: 940 nM top; setting: 60-bp whole probe; with: salmon DNA 0.4 mg/ml; relative to: random background probes; reading: higher = stronger binding; endpoint: fitted relative affinity; all sequences stand within: GCCTAGCAC … GTCTTGATTCGCTTGACGCTGCTG
Target: Interferon regulatory factor 5, full length, phosphomimetic (IRF5, Homo sapiens, UniProt Q13568-2, residues 1-514, S451D/S453D/S456D/S462D)
CACAGAACATATTAGTATATGTGCTAG: 0.199 z-score
TCAGGTCTCCCTTGAGGTTTGTGCTAG: -0.255 z-score
TTAGGACTGGCCTATCGGTTAGTGCTA: -0.501 z-score
TGTCCTGTCTACATGGGTGTGTGCTAG: 0.0264 z-score
GACGGTCTCGGAATGGGGACGTGCTAG: 1.47 z-score

Sample 2 — method: RNA Bind-n-Seq; molecule type: RNA; medium: in vitro; tested at: 1 µM; setting: whole 134-nt RNA, ends assumed; with: 150 mM KCl; relative to: input library; reading: higher = stronger binding; endpoint: log2 enrichment
Target: Ras GTPase-activating protein-binding protein 1, RRM domain (G3BP1, Homo sapiens, UniProt Q13283)
Chain of UniProt Q13283 (whole entry, looked up): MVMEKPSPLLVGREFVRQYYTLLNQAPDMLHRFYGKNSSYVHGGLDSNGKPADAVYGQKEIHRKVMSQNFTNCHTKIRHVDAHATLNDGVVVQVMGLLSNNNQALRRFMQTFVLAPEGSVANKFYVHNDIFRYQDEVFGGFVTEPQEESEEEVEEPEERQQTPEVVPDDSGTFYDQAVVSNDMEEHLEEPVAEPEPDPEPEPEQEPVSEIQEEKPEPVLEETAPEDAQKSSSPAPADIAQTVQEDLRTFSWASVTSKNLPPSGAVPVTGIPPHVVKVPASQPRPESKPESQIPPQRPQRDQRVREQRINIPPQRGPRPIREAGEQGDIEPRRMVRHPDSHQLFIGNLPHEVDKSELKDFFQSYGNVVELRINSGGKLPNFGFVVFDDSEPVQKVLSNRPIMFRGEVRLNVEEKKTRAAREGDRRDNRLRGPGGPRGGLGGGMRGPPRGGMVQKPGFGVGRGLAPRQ
GGGAGUUCUACAGUCCGACGAUCUCCUGUGCUACACAUCGUAUGUACCGAAUCGGGGCCCCCCGGGCCCCCCGGGCCCCCCGGAAAGUAUUAUGUUACGCCGUUCGGAUCUGCUGGAAUUCUCGGGUGUCAAGG: -0.393
GGGAGUUCUACAGUCCGACGAUCUGGCCCUGGUGGCAUGCGGGGAGGAAGAGGUGGCCUAAUGGAUCGUGGUGGUCCCGGUGGAAUGUUCAGAGGUGGCCGUGGUGGAGACAGUGGAAUUCUCGGGUGUCAAGG: 0.962
GGGAGUUCUACAGUCCGACGAUCUGGGAGGUGGAUUUUGUUUAUUUUUUUAGCUCAUUUCCAGGGGUGGUAAUUUUUUUUUAAUAUGUGUCAUGAAUAAAGUUGUUUUUGAAAUGGAAUUCUCGGGUGUCAAGG: 1.34

Sample 3 — method: protein binding microarray; molecule type: double-stranded DNA, one strand shown; medium: in vitro; tested at: not given; relative to: not given; reading: higher = stronger binding; endpoint: E-score
Target: Histone acetyltransferase KAT6A, winged helix 1, GST fusion (KAT6A, Homo sapiens, UniProt Q92794, residues 1-85)
Setting: 8-mer, flanks averaged, mean of 2 arrays, mostly near background
Construct (chain): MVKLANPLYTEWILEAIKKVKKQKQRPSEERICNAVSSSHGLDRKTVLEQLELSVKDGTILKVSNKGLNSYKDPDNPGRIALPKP
CACAAGCG: 0.132
TGCGTTAA: 0.136
AATCCTGA: -0.152
ACGGCACA: 0.185
CAGGCGAG: -0.194
GTTATCTA: -0.115

Single results of other studies
PhoQ, residues 284 288 289 292 302 303 AMDMFI — fold induction (PhoP, residues 12 14 15 18 19 LHHVQ (Escherichia coli, UniProt P23836); Sort-seq, item: YFP reporter; E. coli; PhoQ-PhoP variant library, with: 10 µM Mg2+; relative to: high Mg2+ state, higher = stronger signaling): 0.415

A few entries again (sample 2):
GGGAGUUCUACAGUCCGACGAUCUCCUGUGCUACACAUCGUAUGUACCGAAUCGGGGCCCCCCGGGCCCCCCGGGCCCCCCGGAAAGUAUUAUGUUACGCCGUUCGGAUCUGCUGGAAUUCUCGGGUGUCAAGG: -0.393
GGGAGUUCUACAGUCCGACGAUCUGGCCCUGGUGGCAUGCGGGGAGGAAGAGGUGGCCUAAUGGAUCGUGGUGGUCCCGGUGGAAUGUUCAGAGGUGGCCGUGGUGGAGACAGUGGAAUUCUCGGGUGUCAAGG: 0.962
